Measurements gathered from unrelated publications.
A part holds a random share of what one study measured.

Study 1
Target: Histone acetyltransferase KAT6A, both winged helices, GST fusion (KAT6A, Homo sapiens, UniProt Q92794, residues 1-181)
Method: protein binding microarray
Form: double-stranded DNA, one strand shown
Sample: in vitro
Tested at: not given
Notes: 8-mer, flanks averaged, mean of 2 arrays, mostly near background
Baseline: not given
Reading: higher = stronger binding
Construct (chain): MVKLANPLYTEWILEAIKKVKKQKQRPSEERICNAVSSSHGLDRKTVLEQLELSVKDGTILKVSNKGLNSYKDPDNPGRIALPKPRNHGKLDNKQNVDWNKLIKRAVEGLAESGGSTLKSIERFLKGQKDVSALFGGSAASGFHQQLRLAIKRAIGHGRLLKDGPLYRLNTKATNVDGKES
For `ACACGTCC`, the E-score was 0.0521.
`GTAAATCA` has an E-score of -0.0368.
The E-score of `ACGTAGCT` is reported as -0.0623.
`CATAGACC` has an E-score of -0.0104.
For `ACCTCTCC`, the E-score was 0.0491.
With `CAGATTTA` the E-score was -0.177.
`ACAGTTTG` has an E-score of 0.0418.
`CCATTTGC` gave an E-score of -0.131.

Study 2
Target: Sal-like protein 4, full length isoform A (SALL4, Homo sapiens, UniProt Q9UJQ4, residues 1-1053)
Chain of UniProt Q9UJQ4 (whole entry, looked up): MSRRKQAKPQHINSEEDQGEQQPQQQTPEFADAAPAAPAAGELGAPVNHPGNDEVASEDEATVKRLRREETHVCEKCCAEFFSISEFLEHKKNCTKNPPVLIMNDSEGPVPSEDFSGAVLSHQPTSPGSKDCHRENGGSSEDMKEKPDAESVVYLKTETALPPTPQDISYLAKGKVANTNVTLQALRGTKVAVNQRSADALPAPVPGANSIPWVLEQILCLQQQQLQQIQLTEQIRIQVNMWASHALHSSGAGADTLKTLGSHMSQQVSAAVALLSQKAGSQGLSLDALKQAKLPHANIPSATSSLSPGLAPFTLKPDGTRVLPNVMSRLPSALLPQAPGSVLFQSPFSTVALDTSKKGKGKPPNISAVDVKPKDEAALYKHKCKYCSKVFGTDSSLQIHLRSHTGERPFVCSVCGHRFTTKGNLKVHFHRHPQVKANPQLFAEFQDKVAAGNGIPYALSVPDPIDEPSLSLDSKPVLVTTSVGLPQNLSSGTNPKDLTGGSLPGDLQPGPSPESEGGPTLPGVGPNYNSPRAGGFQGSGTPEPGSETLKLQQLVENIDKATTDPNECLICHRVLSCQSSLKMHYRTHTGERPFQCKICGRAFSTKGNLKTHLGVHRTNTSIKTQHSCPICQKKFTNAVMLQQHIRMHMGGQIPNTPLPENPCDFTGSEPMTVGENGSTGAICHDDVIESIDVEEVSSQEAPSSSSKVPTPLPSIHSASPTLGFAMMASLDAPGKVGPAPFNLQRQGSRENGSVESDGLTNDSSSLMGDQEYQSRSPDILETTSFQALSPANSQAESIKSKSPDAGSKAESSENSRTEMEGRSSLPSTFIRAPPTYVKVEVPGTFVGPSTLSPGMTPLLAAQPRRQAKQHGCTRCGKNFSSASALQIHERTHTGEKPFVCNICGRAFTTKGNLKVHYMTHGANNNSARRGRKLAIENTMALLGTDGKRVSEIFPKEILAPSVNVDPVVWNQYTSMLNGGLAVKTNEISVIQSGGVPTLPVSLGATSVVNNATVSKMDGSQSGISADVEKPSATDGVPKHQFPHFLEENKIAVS
Method: universal PBM
Form: double-stranded DNA, one strand shown
Sample: in vitro
Tested at: 600 nM
Notes: 8-mer, flanks averaged, mean of replicates
Reading: higher = stronger binding
The E-score of `AAACCACG` is reported as -0.153.
The E-score of `CGGACTGA` is reported as -0.204.
For `ATTCTGCG`, the E-score was -0.0362.
With `ACATGACT` the E-score was -0.0325.
`CCCCCGTC` gave an E-score of -0.312.

Study 3
Target: Interferon regulatory factor 7, full length, phosphomimetic (IRF7, Homo sapiens, UniProt Q92985, residues 1-503, S101K/S471D/S472D/S475D/S476D/S477D/S483D/S484D/S487D)
Chain of UniProt Q92985 (whole entry, unmodified, looked up): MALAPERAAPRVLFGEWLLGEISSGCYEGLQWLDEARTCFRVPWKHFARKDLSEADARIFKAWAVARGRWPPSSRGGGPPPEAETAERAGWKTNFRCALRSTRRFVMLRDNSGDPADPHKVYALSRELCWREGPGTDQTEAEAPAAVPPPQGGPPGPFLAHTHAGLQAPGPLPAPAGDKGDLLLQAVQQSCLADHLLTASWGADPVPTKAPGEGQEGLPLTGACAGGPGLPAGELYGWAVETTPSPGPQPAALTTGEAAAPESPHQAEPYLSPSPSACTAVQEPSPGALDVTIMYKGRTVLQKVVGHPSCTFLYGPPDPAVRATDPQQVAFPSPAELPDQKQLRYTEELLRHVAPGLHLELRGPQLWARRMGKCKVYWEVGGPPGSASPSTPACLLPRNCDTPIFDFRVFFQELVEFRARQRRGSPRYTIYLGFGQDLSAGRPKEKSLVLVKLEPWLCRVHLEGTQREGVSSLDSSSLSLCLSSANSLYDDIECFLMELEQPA
Method: protein-binding microarray
Form: double-stranded DNA, one strand shown
Sample: in vitro
Tested at: 250 nM
Notes: 60-bp whole probe
Together with: salmon DNA 0.4 mg/ml
Baseline: random background probes
Reading: higher = stronger binding
`GCCTAGCACTTCTCTATTGCTTTCTCTTTGTGCTAGGTCTTGATTCGCTTGACGCTGCTG` gave a log fluorescence of 1.82 z-score.
`GCCTAGCACGTCGATATCAGACTGGAGACGTGCTAGGTCTTGATTCGCTTGACGCTGCTG` has a log fluorescence of 0.109 z-score.
The log fluorescence of `GCCTAGCACTTAGATTTCAGGACTGGATTAGTGCTAGTCTTGATTCGCTTGACGCTGCTG` is reported as 0.196 z-score.
With `GCCTAGCACTGAGGACTGCTTCTCCTTTAGTGCTAGGTCTTGATTCGCTTGACGCTGCTG` the log fluorescence was 0.135 z-score.

Other studies, line by line
The fold induction of `PhoQ, residues 284 288 289 292 302 303 SCCLKL` is reported as 1.94 (PhoP, residues 12 14 15 18 19 LWHVM (Escherichia coli, UniProt P23836); Sort-seq, item: YFP reporter; E. coli; PhoQ-PhoP variant library, together with: 10 µM Mg2+; baseline: high Mg2+ state, higher = stronger signaling).

Excerpt of the above (study 1):
`CCATTTGC` gave an E-score of -0.131.
`GTAAATCA` has an E-score of -0.0368.
